Measurements from different studies.
Numbered parts are unrelated; each lists some results of a single study. Positions count from the first letter of the parent shown.

Sample 1
Target: TAR DNA-binding protein 43, full length, His tag (TARDBP, Homo sapiens, UniProt Q13148, residues 1-414)
Method: RNA Bind-n-Seq
Molecule type: RNA
Sample: in vitro
Tested at: 20 nM
Notes: 6-mer, flanks averaged, single round
Added: 150 mM KCl
Relative to: input library
Reading: higher = stronger binding
Quantity: 6-mer enrichment (R)
Oligonucleotide = CGUUCC; result = 0.601
Oligonucleotide = UCCCAC; result = 0.602
Oligonucleotide = AGGAUU; result = 0.683
Oligonucleotide = UACCAU; result = 0.585
Oligonucleotide = UGGAGU; result = 1.35
Oligonucleotide = UGCAUU; result = 0.615
Oligonucleotide = ACCUCG; result = 0.629
Oligonucleotide = UCCGCA; result = 0.644
Oligonucleotide = AGGCCU; result = 0.804
Oligonucleotide = GAAACU; result = 0.657

Sample 2
Target: CCND2, cyclin fold, Cln2 fusion (human)
Method: yeast growth competition, sequencing
Sample: yeast
Notes: weak parent motif
Relative to: not given
Reading: higher = stronger binding
Quantity: normalised enrichment score
Starting sequence: GMNC docking peptide (human); KNAKRNLSSEFAN
Substitution = S9N; result = 0.383
Substitution = A12M; result = 0.675
Substitution = N6V; result = -0.175
Substitution = A3N; result = 0.273
Substitution = L7D; result = 0.592
Substitution = R5G; result = 0.126
Substitution = N2T; result = 0.621
Substitution = A12P; result = 0.105
Substitution = F11W; result = 0.35
Substitution = A3Q; result = 0.0588
Substitution = L7N; result = 0.000857
Substitution = S8Q; result = 0.54
Substitution = N2W; result = 0.506
Substitution = F11N; result = -0.495
Substitution = A12T; result = 0.188
Substitution = F11Q; result = 0.122
Substitution = L7H; result = -0.0909
Substitution = N6R; result = 0.0371
Substitution = S8M; result = 0.443
Substitution = A3D; result = 0.0296
Substitution = E10L; result = -0.451
Substitution = A12G; result = 0.0849
Substitution = N2C; result = 0.203
Substitution = R5M; result = 0.271
Substitution = S8D; result = 0.011

Sample 3
Target: Histone acetyltransferase KAT6A, both winged helices, GST fusion (KAT6A, Homo sapiens, UniProt Q92794, residues 1-181)
Method: protein binding microarray
Molecule type: double-stranded DNA, one strand shown
Sample: in vitro
Tested at: not given
Notes: 8-mer, flanks averaged, mean of 2 arrays, mostly near background
Relative to: not given
Reading: higher = stronger binding
Quantity: E-score
Construct (chain): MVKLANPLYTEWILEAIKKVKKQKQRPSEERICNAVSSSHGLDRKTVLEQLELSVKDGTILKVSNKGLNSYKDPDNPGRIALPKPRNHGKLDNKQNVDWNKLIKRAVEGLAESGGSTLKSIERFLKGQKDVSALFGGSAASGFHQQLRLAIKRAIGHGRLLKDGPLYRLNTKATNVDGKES
Oligonucleotide = ATTCTCGA; result = 0.00545
Oligonucleotide = GAGAAGAA; result = -0.0825
Oligonucleotide = GAGTTGTA; result = -0.0917
Oligonucleotide = CTTTAATC; result = -0.102
Oligonucleotide = CGACCAGC; result = 0.0618
Oligonucleotide = CTCCGCTC; result = 0.0387
Oligonucleotide = GTGGCATA; result = -0.145
Oligonucleotide = CCTGGCTA; result = -0.154
Oligonucleotide = AGATCGAT; result = 0.0361
Oligonucleotide = ATATACTA; result = 0.0293
Oligonucleotide = CAAAATGA; result = 0.0372
Oligonucleotide = GAGTCGCA; result = -0.0679
Oligonucleotide = ACGATGTA; result = -0.0237
Oligonucleotide = CGTCTATC; result = 0.0118
Oligonucleotide = GTAGGAAC; result = -0.0997
Oligonucleotide = CATAGGCA; result = -0.0969
Oligonucleotide = CAGTCCAG; result = -0.144
Oligonucleotide = ATTAGCCG; result = 0.229
Oligonucleotide = TATTCAAA; result = 0.151
Oligonucleotide = ATTTAATA; result = -0.0618
Oligonucleotide = AGTGACTC; result = -0.226
Oligonucleotide = GCATATGC; result = 0.07
Oligonucleotide = AGGAAAAA; result = -0.154
Oligonucleotide = ACCGAATG; result = 0.0584

Sample 4
Target: Prothrombin, mature alpha-thrombin (F2, Homo sapiens, UniProt P00734)
Method: aptamer microarray, sandwich
Molecule type: DNA with 2'F-ANA
Sample: in vitro
Tested at: 200 nM
Notes: whole 15-mer aptamer, many near background
Added: Cy3 exosite-II aptamer, 400 nM
Reading: higher = stronger binding
Quantity: mean fluorescence intensity
Oligonucleotide: GGTTGGTGTGGTTGG
Modification = 2'F-ANA at 1 11 13 14 15; result = 52.5 a.u.
Modification = 2'F-ANA at 1 2 4 7 8 11 14 15; result = 56.5 a.u.
Modification = 2'F-ANA at 1 4 6 10 13; result = 47.2 a.u.
Modification = 2'F-ANA at 1 2 4 6 9 11 12 13 14; result = 53.4 a.u.
Modification = 2'F-ANA at 1 2 3 5 10 12 15; result = 51.2 a.u.
Modification = 2'F-ANA at 1 2 3 4 6 7 8 13; result = 124 a.u.
Modification = 2'F-ANA at 7 9 10 11 13 15; result = 155 a.u.
Modification = 2'F-ANA at 5 6 7 10 13; result = 60.2 a.u.
Modification = 2'F-ANA at 4 9 10 11; result = 131 a.u.
Modification = 2'F-ANA at 1 3 9 12 15; result = 562 a.u.
Modification = 2'F-ANA at 1 2 3 4 7 8 9 10 12; result = 78.8 a.u.
Modification = 2'F-ANA at 3 8 9 11 12 15; result = 1190 a.u.
Modification = 2'F-ANA at 1 2 4 5 6 8 9 12 13; result = 76 a.u.
Modification = 2'F-ANA at 2 4 5 7 8 9 11; result = 93.9 a.u.
Modification = 2'F-ANA at 1 2 6 7 9 10 11 12 13; result = 58.6 a.u.
Modification = 2'F-ANA at 3 4 7 10 11 12 14 15; result = 181 a.u.
Modification = 2'F-ANA at 2 3 5 7 9 11 15; result = 82.5 a.u.
Modification = 2'F-ANA at 4 5 7 10 12 13 15; result = 47.3 a.u.
Modification = 2'F-ANA at 2 7 10 12 14 15; result = 89.3 a.u.
Modification = 2'F-ANA at 1 2 3 5 10 11 13; result = 46 a.u.
Modification = 2'F-ANA at 1 3 4 5 8 11 12 15; result = 92.7 a.u.
Modification = 2'F-ANA at 2 3 4 5 6 7 12 13 15; result = 111 a.u.
Modification = 2'F-ANA at 4 6 7 13; result = 199 a.u.
Modification = 2'F-ANA at 3 5 7 10 14; result = 54.9 a.u.
Modification = 2'F-ANA at 2 3 4 5 8 9 14; result = 50.5 a.u.

Sample 5
Target: Interferon regulatory factor 3, full length, phosphomimetic (IRF3, Homo sapiens, UniProt Q14653, residues 1-427, S386D/S396D/S398D/S402D/T404D/S405D)
Method: protein-binding microarray
Molecule type: double-stranded DNA, one strand shown
Sample: in vitro
Tested at: 2540 nM top
Notes: 60-bp whole probe
Added: salmon DNA 0.4 mg/ml
Relative to: random background probes
Reading: higher = stronger binding
Quantity: fitted relative affinity
Shared flanks, not repeated: GCCTAGCAC … GTCTTGATTCGCTTGACGCTGCTG
Target sequence (chain): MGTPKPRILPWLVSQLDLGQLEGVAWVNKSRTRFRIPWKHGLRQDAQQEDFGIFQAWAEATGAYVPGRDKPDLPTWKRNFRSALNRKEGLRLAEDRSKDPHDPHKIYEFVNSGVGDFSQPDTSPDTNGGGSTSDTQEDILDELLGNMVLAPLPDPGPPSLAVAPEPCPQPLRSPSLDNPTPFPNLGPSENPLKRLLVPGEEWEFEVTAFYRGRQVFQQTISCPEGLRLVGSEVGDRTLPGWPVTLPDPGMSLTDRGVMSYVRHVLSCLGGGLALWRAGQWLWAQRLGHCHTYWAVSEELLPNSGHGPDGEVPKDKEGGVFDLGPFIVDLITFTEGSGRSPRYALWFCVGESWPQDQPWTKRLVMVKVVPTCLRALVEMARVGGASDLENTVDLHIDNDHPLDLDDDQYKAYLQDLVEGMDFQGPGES
Oligonucleotide = GACGCTTTCGACACTGGGGACGTGCTA; result = 0.739 z-score
Oligonucleotide = TTAGGTATCGGGACTGGTTTAGTGCTA; result = 1.35 z-score
Oligonucleotide = TTACATCTCAGTATCGATTAGTGCTAG; result = 1.34 z-score
Oligonucleotide = TTAGATAGCGGGTATCGATTAGTGCTA; result = -0.139 z-score
Oligonucleotide = TCATATTGCTTTCTCTTACTGTGCTAG; result = 1.8 z-score
Oligonucleotide = TTAGAACTGGGGTATCGATTCGTGCTA; result = 0.0483 z-score
Oligonucleotide = GACGGACGGGGGACTGGGGACGTGCTA; result = -0.287 z-score
Oligonucleotide = TTAGGTATCCTTAACCTTTAGTGCTAG; result = 2.25 z-score
Oligonucleotide = GACGGATTGGGGTTTCGGGACGTGCTA; result = 0.96 z-score
Oligonucleotide = GACGCTATCGACTATCGGGACGTGCTA; result = -0.124 z-score
Oligonucleotide = AGCAAATTATATCTTATATCGTGCTAG; result = -0.145 z-score
Oligonucleotide = GACGAACTGAGACGGGAGACGTGCTAG; result = -0.143 z-score
Oligonucleotide = GAGGGACTGCTTATCCTGACGTGCTAG; result = -0.68 z-score
Oligonucleotide = TTAGATCTCAGACTGGATTTGTGCTAG; result = -0.0483 z-score
Oligonucleotide = GACGATATCGGGTTTGGAGACGTGCTA; result = 0.22 z-score
Oligonucleotide = ATAGATTTCGGGTTTCGATTAGTGCTA; result = 3.42 z-score
Oligonucleotide = TTAGGTCTCTGTTTCGGTTAGTGCTAG; result = 3.93 z-score
Oligonucleotide = AAGTTTACCCATCTCCAGTAGTGCTAG; result = 2.13 z-score

Sample 6
Target: ABI1, truncated, D143A, DHFR fusion (Arabidopsis thaliana, UniProt P49597)
Method: DHFR PCA, dose-response
Sample: yeast
Notes: Hill fit, not affinity
Added: (+)-ABA, dose series
Reading: lower = more sensitive
Quantity: ABA EC50
Starting sequence: PYL1, truncated, DHFR fusion (Arabidopsis thaliana, UniProt Q8VZS8); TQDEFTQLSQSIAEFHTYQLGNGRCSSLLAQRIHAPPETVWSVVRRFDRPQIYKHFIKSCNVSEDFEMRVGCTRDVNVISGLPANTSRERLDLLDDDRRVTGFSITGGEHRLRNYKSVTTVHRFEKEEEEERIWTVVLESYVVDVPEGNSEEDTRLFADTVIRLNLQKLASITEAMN
Substitution = S104D; result = 1900 µM
Substitution = T106L; result = 5.02 µM
Substitution = N85M; result = 20.4 µM
Substitution = D92G; result = 276 µM
Substitution = N85H; result = 29.8 µM
Substitution = E131G; result = 2.03 µM
Substitution = L28I; result = 20 µM
Substitution = S87Y; result = 1.56 µM
Substitution = A84Y; result = 2.11 µM
Substitution = E131N; result = 2.75 µM
Substitution = L20T; result = 4.06 µM
Substitution = C72A; result = 1.07 µM
Substitution = T173C; result = 2.4 µM
Substitution = L169T; result = 1170 µM
Substitution = N85T; result = 2.25 µM
Substitution = T154P; result = 1830 µM
Substitution = V100N; result = 1220 µM

Other studies, line by line
Molecule = PhoQ, residues 284 288 289 292 302 303 SSTLSG; target = PhoP, residues 12 14 15 18 19 GQAIL (Escherichia coli, UniProt P23836); test = Sort-seq, measured: YFP reporter; test system = E. coli; setting = PhoQ-PhoP variant library, added: 10 µM Mg2+; how to read = relative to: high Mg2+ state, higher = stronger signaling; quantity = fold induction; result = 8.47

A few entries again (sample 6):
Substitution = T106L; result = 5.02 µM
Substitution = N85M; result = 20.4 µM
Substitution = D92G; result = 276 µM
Substitution = N85H; result = 29.8 µM
Substitution = E131G; result = 2.03 µM
Substitution = L28I; result = 20 µM
Substitution = S87Y; result = 1.56 µM
Substitution = A84Y; result = 2.11 µM
Substitution = E131N; result = 2.75 µM
Substitution = L20T; result = 4.06 µM
Substitution = C72A; result = 1.07 µM
Substitution = T173C; result = 2.4 µM
Substitution = L169T; result = 1170 µM
Substitution = N85T; result = 2.25 µM
Substitution = T154P; result = 1830 µM
Substitution = V100N; result = 1220 µM
